Experimental data from different studies.
Parts stem from different laboratories: compare values within a part only.
Sequence of UniProt Q8NG66 (whole entry, looked up): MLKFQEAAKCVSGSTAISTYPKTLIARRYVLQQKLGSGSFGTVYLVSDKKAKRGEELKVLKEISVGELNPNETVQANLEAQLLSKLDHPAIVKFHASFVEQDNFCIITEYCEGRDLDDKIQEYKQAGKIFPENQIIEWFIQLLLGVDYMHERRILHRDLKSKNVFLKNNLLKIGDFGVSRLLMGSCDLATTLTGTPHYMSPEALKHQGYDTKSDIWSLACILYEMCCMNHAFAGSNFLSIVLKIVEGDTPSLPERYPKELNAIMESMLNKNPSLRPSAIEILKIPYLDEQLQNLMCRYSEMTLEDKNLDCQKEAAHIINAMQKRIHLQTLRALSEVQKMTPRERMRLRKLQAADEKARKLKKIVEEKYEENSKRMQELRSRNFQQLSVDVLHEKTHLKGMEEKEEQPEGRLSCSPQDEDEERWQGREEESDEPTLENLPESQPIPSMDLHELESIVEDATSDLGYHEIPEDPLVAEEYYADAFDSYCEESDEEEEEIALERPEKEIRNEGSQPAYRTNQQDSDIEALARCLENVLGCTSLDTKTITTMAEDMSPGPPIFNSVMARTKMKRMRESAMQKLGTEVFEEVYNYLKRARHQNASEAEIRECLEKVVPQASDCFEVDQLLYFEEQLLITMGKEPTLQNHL
Sequence of UniProt Q8TBX8 (whole entry, looked up): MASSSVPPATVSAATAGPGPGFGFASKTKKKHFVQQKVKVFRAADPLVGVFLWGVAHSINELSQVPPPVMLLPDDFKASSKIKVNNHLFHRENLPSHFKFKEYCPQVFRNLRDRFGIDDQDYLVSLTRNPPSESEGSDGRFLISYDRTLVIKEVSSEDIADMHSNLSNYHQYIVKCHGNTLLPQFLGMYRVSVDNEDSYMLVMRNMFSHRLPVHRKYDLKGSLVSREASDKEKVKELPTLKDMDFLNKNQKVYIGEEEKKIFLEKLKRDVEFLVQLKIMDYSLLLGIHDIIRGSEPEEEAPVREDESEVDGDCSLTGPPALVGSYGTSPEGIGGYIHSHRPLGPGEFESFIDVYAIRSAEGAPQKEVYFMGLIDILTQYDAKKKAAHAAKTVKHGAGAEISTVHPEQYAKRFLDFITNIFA
Sequence of UniProt P10721 (whole entry, unmodified, looked up): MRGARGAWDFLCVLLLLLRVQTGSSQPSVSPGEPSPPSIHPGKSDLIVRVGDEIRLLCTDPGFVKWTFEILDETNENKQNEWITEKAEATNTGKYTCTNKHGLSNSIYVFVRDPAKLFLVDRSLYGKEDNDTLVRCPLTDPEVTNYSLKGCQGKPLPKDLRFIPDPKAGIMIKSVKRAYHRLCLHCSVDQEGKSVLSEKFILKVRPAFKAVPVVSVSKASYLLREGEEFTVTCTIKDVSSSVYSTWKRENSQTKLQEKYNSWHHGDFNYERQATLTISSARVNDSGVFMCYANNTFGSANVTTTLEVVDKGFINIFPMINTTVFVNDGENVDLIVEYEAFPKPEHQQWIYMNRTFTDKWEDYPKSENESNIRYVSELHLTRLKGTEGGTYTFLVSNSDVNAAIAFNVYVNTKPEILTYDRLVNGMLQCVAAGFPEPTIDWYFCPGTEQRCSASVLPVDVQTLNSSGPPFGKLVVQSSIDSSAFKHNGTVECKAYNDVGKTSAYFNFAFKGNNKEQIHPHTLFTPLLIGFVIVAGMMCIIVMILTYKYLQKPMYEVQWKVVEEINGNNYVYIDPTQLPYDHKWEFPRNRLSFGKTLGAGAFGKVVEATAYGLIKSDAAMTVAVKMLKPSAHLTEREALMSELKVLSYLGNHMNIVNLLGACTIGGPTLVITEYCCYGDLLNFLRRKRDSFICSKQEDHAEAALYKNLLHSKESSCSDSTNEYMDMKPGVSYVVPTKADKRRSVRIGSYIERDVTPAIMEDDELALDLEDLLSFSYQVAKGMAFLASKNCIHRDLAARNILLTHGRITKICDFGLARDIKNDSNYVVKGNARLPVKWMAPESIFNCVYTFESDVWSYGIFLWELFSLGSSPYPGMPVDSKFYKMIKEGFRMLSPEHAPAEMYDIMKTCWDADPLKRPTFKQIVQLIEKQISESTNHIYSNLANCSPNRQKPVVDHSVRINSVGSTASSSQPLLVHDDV

Sample 1 — read-out: cell-free assay; method: competition with immobilised ligand; tested at: 1 µM; measurement: remaining binding
SMILES: Cn1cncc1[C@@](O)(COc1ccc(C#N)cc1-c1ccc(OC(F)(F)F)cc1)c1ccc(C#N)cc1
Mast/stem cell growth factor receptor Kit (KIT, Homo sapiens, UniProt P10721, V559D/V654A): 100%
Phosphatidylinositol 5-phosphate 4-kinase type-2 gamma (PIP4K2C, Homo sapiens, UniProt Q8TBX8): 96%
Serine/threonine-protein kinase Nek11 (NEK11, Homo sapiens, UniProt Q8NG66): 100%

Sample 2 — method: RNA Bind-n-Seq; form: RNA; sample: in vitro; tested at: not given; baseline: input RNA pool; direction: higher = stronger binding; measurement: bound/input enrichment
Target: RING finger protein unkempt homolog, zinc fingers 1-6, GST-SBP tag (UNK, Homo sapiens, UniProt Q9C0B0, residues 30-357)
Sequence of UniProt Q9C0B0 (30-357, looked up): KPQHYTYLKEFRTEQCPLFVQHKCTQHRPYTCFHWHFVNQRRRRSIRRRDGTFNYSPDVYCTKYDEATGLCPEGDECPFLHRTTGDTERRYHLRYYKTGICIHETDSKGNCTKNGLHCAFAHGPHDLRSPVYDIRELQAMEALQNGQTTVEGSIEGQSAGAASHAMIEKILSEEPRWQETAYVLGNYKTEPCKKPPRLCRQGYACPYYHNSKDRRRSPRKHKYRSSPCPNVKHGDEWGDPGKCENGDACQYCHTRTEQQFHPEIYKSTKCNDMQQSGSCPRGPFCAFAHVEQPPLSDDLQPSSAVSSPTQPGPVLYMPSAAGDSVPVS
Notes: RNA with constant flanks, human and mouse sites, ends assumed
All sequences stand within: GGGAGUUCUACAGUCCGACGAUC … CAACAGAGGAUUGAGCAUCA
AAAGCCCAAGUAUUUUGAAAAAACUCGAACAGAUUUGACAAGGGUAGCCAGCUUGGAGUCUAGCAACUUGCCAAUGUGUUUACCAAUCUGGGGGCUUGUUUUUCUUUUCUUCUUUCAAAU: 0.314 ratio
CAUCUCCUCGUCCGACCUCACAGGCCGACAAGAUACCUCUCGCAUGUCCACCUCACAGAAUAGCAUUCCUUUCGAACACCACGGCAAGUAGCUGCUCGUCUCCCAUCGGAAGGCAGCACU: 0.292 ratio
GAGAAUGUUAUUUAAAGUUGUAUUAUAAUUGCAACCUCCACUAAUUAUUCAGUACUGUAGCAGCAAAGUAUUAUUUGUAAGAAUUUGGUUAUUUUUAUACUUAUAUCCACUCUAAGUCUG: 0.235 ratio
CCGAUGAACAGGAAAUCAAUGCCUGAGGCAGACUUCAGCUCCUGGACACCCUUAGAGUUCCUGGUGGAAACCUUCCAUGACUGGAUCACUGGGAACAAACGGCCAAACUCAGGAAGCCUA: 0.196 ratio
CAGGCCAGAAACAAGAGGAAGCAAGACACCAAGAGCUUGAAGCAGAAGGACACUAAGAAGAAAUUGAAGGCUGAGAAAGAGAAGAUGAAGACAAAGCAGGAAAAGCUGAAGGAAAAGGUA: 0.422 ratio
UGGCCUUGAUUUAGUGACAGUUUAUUCUAAUGGGGACCAUAGGUGUUAUUAGUAAAAAGAUAGUGUACAAGGCCUAAGUUCAGUUUACAUUGUUCUUUGAAAUGAGUUCAUCUUUUGUGU: 5.62 ratio
GGGGUGCCAGCGCUGACGCAGAACCUACCAAGGAUACUCAGAAAAGAACGUCCUAUAUCAUUAGGGAUUUUCCCUCUACCUGCUGGAGAUGGAUUGCUUACACCUGACACUCAGAAAGGA: 0.219 ratio
AGAAUUAUGGUAUAUGGUACAUGGUUGAAGUGCCAUUGUUUCAGUUAACAUUCCAGUAACCUUGUGGAUUAGGUUGGAGACAUGCUUUAUAGGUGACCCACUUACUGAGUGUUUAAAUAU: 0.43 ratio

Sample 3 — method: aptamer microarray, sandwich; form: DNA with 2'F-ANA; sample: in vitro; tested at: 200 nM; added: Cy3 exosite-II aptamer, 400 nM; direction: higher = stronger binding; measurement: mean fluorescence intensity; oligonucleotide: GGTTGGTGTGGTTGG
Target: Prothrombin, mature alpha-thrombin (F2, Homo sapiens, UniProt P00734)
Notes: whole 15-mer aptamer, many near background
2'F-ANA at 1 2 4 6 7 9 10 11 12 13: 59.8 a.u.
2'F-ANA at 1 2 4 8 12 14 15: 67.3 a.u.
2'F-ANA at 1 4 5 6 10 12: 47.8 a.u.
2'F-ANA at 1 3 4 6 9 10 12 13 14 15: 63.7 a.u.
2'F-ANA at 2 6 10: 123 a.u.
2'F-ANA at 2 4 5 6 10 12: 53.2 a.u.
2'F-ANA at 2 3 5 7 8 10 11 15: 56.8 a.u.
2'F-ANA at 2 3 5 7 8 9 11 12 15: 178 a.u.

Sample 4 — read-out: peptide-MHC binding; form: peptide; tested at: concentration not given; measurement: binding
Target: HLA class I histocompatibility antigen, C alpha chain, allele C*04:01 (Homo sapiens, UniProt P10321)
MMWATAQAL: inactive
SLLERGQQLGV: inactive
FQMGGIGPM: inactive
YTGAMTSKF: inactive
YTYDLAEYR: inactive

A few entries again (sample 3):
2'F-ANA at 2 3 5 7 8 10 11 15: 56.8 a.u.
2'F-ANA at 2 3 5 7 8 9 11 12 15: 178 a.u.
